Experimental data pooled from the literature.
Each numbered part is a random draw from the data of one study; scales do not carry over between parts. Changes are numbered by the printed parent chain.
UniProt Q15139, sequence (whole entry, looked up): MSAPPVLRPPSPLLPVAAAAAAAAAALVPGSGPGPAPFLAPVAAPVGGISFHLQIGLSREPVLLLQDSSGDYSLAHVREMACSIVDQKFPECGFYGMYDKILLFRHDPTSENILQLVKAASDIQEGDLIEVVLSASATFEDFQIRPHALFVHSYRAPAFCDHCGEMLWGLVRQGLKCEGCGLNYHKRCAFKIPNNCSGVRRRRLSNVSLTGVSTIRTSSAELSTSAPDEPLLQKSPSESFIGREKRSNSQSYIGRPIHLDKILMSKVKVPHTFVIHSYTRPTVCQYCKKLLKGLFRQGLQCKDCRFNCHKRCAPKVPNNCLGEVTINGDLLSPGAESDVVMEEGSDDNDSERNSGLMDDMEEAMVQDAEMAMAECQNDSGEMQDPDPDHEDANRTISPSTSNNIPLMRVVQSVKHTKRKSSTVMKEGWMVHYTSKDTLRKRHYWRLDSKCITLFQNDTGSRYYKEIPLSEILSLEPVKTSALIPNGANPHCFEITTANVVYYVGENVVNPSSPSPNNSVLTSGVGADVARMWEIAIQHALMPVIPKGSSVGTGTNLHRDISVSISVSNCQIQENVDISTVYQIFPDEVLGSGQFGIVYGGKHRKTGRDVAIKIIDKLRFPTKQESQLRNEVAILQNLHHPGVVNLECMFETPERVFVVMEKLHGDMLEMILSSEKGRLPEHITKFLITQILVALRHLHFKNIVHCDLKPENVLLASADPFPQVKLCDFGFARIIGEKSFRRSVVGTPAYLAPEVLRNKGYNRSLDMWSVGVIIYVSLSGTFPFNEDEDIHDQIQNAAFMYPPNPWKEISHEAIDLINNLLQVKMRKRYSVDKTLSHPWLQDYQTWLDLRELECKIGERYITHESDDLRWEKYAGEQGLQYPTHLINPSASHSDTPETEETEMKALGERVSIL
UniProt Q9NR20, sequence (whole entry, looked up): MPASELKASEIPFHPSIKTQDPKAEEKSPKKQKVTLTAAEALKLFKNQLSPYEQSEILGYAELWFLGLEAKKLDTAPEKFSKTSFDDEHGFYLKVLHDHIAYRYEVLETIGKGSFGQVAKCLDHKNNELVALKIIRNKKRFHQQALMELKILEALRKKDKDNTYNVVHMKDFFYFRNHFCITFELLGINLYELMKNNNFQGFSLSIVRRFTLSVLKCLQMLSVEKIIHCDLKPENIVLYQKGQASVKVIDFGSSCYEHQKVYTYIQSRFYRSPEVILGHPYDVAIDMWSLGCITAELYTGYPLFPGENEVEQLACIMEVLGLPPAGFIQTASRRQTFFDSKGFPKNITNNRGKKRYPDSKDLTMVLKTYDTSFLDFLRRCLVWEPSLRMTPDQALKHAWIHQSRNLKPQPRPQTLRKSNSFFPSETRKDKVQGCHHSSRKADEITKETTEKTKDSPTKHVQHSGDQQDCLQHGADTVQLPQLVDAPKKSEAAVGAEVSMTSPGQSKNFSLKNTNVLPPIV
UniProt P41279, sequence (whole entry, looked up): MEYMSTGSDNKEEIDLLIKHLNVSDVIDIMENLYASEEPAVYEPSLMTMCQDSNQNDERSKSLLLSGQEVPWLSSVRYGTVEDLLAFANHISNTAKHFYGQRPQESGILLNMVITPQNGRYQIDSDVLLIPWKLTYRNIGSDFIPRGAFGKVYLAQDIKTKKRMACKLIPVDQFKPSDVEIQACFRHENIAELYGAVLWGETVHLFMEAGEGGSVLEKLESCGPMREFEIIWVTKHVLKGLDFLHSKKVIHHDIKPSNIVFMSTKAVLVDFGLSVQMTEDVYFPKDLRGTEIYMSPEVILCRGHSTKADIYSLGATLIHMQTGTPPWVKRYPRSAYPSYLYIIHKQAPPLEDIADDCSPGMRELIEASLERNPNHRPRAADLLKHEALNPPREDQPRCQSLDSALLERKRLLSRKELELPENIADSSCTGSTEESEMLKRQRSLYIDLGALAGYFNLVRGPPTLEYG

Series 1 — method: RNA Bind-n-Seq; form: RNA; sample: in vitro; tested at: not given; baseline: input RNA pool; reading: higher = stronger binding; measurement: bound/input enrichment
Target: RING finger protein unkempt homolog, zinc fingers 1-6, GST-SBP tag (UNK, Homo sapiens, UniProt Q9C0B0, residues 30-357)
Setting: RNA with constant flanks, human and mouse sites, ends assumed
Target sequence (chain): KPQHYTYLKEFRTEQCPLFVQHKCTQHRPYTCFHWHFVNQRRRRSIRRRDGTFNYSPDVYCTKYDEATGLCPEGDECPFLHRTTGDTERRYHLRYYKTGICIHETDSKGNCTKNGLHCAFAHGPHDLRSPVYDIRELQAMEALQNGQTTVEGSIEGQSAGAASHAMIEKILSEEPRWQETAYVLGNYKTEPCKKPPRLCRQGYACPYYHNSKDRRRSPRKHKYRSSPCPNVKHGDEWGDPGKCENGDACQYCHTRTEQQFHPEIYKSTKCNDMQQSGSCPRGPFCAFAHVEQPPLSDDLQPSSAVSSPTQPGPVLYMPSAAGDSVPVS
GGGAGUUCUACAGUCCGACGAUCAUGCCAGAUGAUGAAGGUGAAGGUGAAUUGUGUUGGAAAAAAGUAGACUUAGGGGACGUGAAGAAUGUGGAUGUCUUAUCUUUCAGUCAUGCUCCUUCAUUCAAUUUUCUUUCUAAUUCACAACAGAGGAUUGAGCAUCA: 0.172 ratio
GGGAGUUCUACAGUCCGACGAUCGAAGAGGUUCUGCUGGAACAAGCGGGUGCUGAUGCAACUGAAAGCUUUGAAGAUGUCGGCCACUCCCCUGAUGCCAGGGAGAUGCUAAAGCAGUACUACAUUGGAGAUGUCCAUCCGAGUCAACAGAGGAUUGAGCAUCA: 0.12 ratio
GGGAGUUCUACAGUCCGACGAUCCUCUUCAAGAGCAUCUGGAACAACAGAUGGCUGCGCACCAUCUCUGUGAUUCUCUUCCUCAACAAGCAAGACCUGCUUGCUGAGAAAGUCCUCGCUGGCAAAUCGAAGAUUGAGGACUACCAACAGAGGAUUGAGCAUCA: 0.147 ratio
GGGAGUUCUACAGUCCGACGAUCAUGCACUUUCCAUAUUUUCAAGUCAAUUUUAACUAAAAACUAAGAUAAUGUUUCCUAGUAGAGUUGCUUGAAGAUUAGACUAGACAGGGUUGAUUUAUUAUUAGCAUGUCAUUUGUACAUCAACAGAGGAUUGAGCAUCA: 0.813 ratio
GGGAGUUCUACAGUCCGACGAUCCAAAGUGUGCCAGAAUGUGAACAACACUGCGAAGAUAAAGAAGAGCCUUCAUUUUCAGAAGUAGAAGAACUGUUUCUUCAGACUACUUUUGACAAGAUGGAUUUUUUAACUACUGUCAAACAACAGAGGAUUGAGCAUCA: 0.0736 ratio
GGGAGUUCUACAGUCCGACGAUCUGUGUUCUGAAUGAGAUGAUGCAAAAUGAAGAAAAAUAUGAAAAAAUCUUAAAGGCAUUGAACAGUCGUCGUAUUAUUCCCAGACCAUUUGUAGCUCAAAAACUUGCAUCAAGUGAUGACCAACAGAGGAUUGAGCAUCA: 0.154 ratio
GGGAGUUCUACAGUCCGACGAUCUGCUGGAACGCAGCAGGAGACAAAGUUGGAGCCAGUGCUUCGGACGGUUCAGUUUGUGUCUUAGACCUUCGGAAAUAGCGUUACUAGUUGGAAGCCAUGGACCGACUAUGAAUGUGUACACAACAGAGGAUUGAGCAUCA: 0.401 ratio
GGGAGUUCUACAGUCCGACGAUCCCUUUAGUGGGCAAAGAAACCUUCUGUGUUGGAGCUGCAAAAAACAAAGCUAUCAUACGUAUACUUUCUGGCAAAGGUUGUGGUUUUAGUUACACUCUGGAAAUUGAUGGGAAAAGCUUCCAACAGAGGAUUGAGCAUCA: 0.442 ratio

Series 2 — target: vanadate, free oxyanion; method: microfluidic competitive inhibition; sample: in vitro, cell-free expressed; tested at: not given; reading: lower = stronger binding; measurement: oxyanion analog dissociation constant
Setting: derived from inhibition constants, unchanged parent 676 nM
Starting sequence: PafA, mature enzyme, eGFP fusion (Elizabethkingia meningoseptica, UniProt Q9KJX5); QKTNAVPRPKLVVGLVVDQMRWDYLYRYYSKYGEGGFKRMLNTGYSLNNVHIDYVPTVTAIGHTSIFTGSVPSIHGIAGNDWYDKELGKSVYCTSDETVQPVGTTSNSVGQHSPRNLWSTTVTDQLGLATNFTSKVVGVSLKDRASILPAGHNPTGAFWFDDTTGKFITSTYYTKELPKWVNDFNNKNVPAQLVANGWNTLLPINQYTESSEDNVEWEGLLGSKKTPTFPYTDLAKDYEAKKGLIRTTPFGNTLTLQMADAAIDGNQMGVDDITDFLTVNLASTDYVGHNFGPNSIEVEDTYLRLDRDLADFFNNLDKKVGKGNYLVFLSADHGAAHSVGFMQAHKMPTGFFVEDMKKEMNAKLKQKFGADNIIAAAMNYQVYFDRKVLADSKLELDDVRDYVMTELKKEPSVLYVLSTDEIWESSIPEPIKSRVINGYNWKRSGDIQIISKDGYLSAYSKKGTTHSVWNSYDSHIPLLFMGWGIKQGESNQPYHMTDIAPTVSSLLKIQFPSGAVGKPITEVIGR
S418V: 0.828 µM
L221V: 0.585 µM
T419G: 0.977 µM
R39V: 0.69 µM
I436G: 0.807 µM
E97G: 0.759 µM
M40G: 1.23 µM
R8G: 0.588 µM
R443V: 0.78 µM
D271G: 0.54 µM
V91A: 0.751 µM
E297V: 0.692 µM
L177G: 0.664 µM
D446G: 0.714 µM
S30G: 0.651 µM
A240V: 0.692 µM
H51V: 0.664 µM
G79V: 1.98 µM
L309V: 0.83 µM
V13A: 0.681 µM
Y439V: 0.783 µM
M496G: 0.406 µM
E424V: 0.899 µM
S513V: 1.07 µM
M360V: 0.802 µM

Series 3 — observed: enzyme activity; mode: inhibitor; tested at: 0.5 µM; baseline: control; measurement: remaining activity
Structure (SMILES): N/C(=N\[N+](=O)[O-])N/N=C\c1ccc(-c2cccc([N+](=O)[O-])c2)o1
Dual specificity tyrosine-phosphorylation-regulated kinase 4 (DYRK4, Homo sapiens, UniProt Q9NR20): 92.7%
Mitogen-activated protein kinase kinase kinase 8 (MAP3K8, Homo sapiens, UniProt P41279): 98.8%
Serine/threonine-protein kinase D1 (PRKD1, Homo sapiens, UniProt Q15139): 103%

Series 4 — target: CCND1, cyclin fold, Cln2 fusion (human); method: yeast growth competition, sequencing; sample: yeast; setting: weak parent motif; baseline: not given; reading: higher = stronger binding; measurement: normalised enrichment score; starting sequence: viral docking peptide; TSVRRALFTGGSD
TSVWRALFTGGSD [R4W]: 0.848
TSVRRALFTQGSD [G10Q]: 0.375
TSVRRACFTGGSD [L7C]: 0.0765
TSWRRALFTGGSD [V3W]: 0.412
TSVRRAEFTGGSD [L7E]: 0.232
TSVRYALFTGGSD [R5Y]: 0.0958
TSVRRALFTTGSD [G10T]: 0.179
TSVRRALFTGGGD [S12G]: 0.0854
TPVRRALFTGGSD [S2P]: 0.315
TSVRRALFTHGSD [G10H]: 0.0288
TSVRRALFTGGSA [D13A]: 0.411
TSVRAAAFTGGSD [R5A L7A]: -0.00818
TSVRRALFSGGSD [T9S]: 0.17
TSVLRALFTGGSD [R4L]: 0.653
TSVRRADFTGGSD [L7D]: 0.0746
TSTRRALFTGGSD [V3T]: 0.418
TSVRRALFTAGSD [G10A]: 0.589
TRVRRALFTGGSD [S2R]: 0.428
TSVKRALFTGGSD [R4K]: 0.421
TSVRRALFIGGSD [T9I]: 0.385
TSVRRALFTLGSD [G10L]: 0.508
TSVRNALFTGGSD [R5N]: 0.288
TSVRRALHTGGSD [F8H]: -0.113
TEVRRALFTGGSD [S2E]: 0.39
TSVRRALPTGGSD [F8P]: 0.0738

For quick reference, copied from above (series 2):
L221V: 0.585 µM
I436G: 0.807 µM
E424V: 0.899 µM
S30G: 0.651 µM
